Measurements pooled from the literature.
Lines come from different studies, so protocols differ. ± marks the error that the study gave.
CYP2C19: Cytochrome P450 2C19 (CYP2C19, Homo sapiens, UniProt P33261)
Sequence of UniProt P33261 (whole entry, looked up): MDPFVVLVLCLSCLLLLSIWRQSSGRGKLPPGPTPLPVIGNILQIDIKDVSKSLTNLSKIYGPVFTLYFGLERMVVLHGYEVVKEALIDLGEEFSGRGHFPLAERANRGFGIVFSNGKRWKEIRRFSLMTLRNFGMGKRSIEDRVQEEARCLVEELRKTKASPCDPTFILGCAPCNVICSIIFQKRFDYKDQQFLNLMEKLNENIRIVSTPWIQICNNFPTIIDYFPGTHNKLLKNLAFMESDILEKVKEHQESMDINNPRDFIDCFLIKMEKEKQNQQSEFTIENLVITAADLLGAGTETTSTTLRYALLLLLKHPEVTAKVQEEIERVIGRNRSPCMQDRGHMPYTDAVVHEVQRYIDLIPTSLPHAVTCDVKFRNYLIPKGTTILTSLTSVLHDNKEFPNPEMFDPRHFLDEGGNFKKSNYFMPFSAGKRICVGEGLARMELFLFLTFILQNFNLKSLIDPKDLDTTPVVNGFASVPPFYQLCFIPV
SLCO1B3: Solute carrier organic anion transporter family member 1B3 (SLCO1B3, Homo sapiens, UniProt Q9NPD5)
Sequence of UniProt Q9NPD5 (whole entry, looked up): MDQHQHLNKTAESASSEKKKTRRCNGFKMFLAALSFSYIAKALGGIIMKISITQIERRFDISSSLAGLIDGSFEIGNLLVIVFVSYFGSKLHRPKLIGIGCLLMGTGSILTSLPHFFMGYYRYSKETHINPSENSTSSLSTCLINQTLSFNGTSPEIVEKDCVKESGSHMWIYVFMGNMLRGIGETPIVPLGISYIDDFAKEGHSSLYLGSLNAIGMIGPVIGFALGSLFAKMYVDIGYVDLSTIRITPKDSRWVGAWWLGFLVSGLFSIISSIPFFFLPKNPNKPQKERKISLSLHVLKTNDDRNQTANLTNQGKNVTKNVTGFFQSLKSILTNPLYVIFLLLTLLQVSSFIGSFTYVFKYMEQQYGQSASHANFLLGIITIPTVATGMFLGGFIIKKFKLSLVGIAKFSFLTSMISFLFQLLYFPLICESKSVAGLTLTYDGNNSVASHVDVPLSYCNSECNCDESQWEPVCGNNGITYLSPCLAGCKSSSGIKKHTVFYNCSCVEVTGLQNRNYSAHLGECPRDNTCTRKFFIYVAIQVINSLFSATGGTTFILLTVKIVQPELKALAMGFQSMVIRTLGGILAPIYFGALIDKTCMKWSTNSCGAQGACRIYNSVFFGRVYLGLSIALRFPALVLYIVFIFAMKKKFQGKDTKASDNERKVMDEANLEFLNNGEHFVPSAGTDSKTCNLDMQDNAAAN
Tumor necrosis factor receptor superfamily member 9/Nectin-4: Tumor necrosis factor receptor superfamily member 9/Nectin-4 (Homo sapiens, UniProt Q07011+Q96NY8)
Sequence of UniProt Q07011 (whole entry, looked up): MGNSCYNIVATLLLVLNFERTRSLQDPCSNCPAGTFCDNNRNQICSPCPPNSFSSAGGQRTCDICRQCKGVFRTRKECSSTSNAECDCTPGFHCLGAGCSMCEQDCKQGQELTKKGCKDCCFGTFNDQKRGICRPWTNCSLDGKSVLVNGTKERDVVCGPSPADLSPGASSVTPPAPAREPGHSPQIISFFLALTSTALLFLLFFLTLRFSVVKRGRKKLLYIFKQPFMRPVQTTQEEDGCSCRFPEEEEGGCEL
Sequence of UniProt Q96NY8 (whole entry, looked up): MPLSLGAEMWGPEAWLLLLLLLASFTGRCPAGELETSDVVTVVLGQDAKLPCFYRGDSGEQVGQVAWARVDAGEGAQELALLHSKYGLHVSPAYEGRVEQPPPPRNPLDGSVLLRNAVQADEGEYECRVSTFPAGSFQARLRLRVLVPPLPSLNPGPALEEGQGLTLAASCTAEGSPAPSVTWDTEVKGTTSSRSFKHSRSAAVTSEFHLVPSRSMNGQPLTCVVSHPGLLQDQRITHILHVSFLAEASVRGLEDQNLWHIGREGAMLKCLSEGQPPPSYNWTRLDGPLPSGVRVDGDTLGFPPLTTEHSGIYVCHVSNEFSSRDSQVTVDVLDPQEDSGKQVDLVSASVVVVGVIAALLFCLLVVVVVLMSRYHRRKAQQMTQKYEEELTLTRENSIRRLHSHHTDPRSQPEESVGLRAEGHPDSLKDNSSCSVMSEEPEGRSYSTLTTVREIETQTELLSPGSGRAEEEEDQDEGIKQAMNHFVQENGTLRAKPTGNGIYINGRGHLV
SLC47A2: Multidrug and toxin extrusion protein 2 (SLC47A2, Homo sapiens, UniProt Q86VL8)
Sequence of UniProt Q86VL8 (whole entry, looked up): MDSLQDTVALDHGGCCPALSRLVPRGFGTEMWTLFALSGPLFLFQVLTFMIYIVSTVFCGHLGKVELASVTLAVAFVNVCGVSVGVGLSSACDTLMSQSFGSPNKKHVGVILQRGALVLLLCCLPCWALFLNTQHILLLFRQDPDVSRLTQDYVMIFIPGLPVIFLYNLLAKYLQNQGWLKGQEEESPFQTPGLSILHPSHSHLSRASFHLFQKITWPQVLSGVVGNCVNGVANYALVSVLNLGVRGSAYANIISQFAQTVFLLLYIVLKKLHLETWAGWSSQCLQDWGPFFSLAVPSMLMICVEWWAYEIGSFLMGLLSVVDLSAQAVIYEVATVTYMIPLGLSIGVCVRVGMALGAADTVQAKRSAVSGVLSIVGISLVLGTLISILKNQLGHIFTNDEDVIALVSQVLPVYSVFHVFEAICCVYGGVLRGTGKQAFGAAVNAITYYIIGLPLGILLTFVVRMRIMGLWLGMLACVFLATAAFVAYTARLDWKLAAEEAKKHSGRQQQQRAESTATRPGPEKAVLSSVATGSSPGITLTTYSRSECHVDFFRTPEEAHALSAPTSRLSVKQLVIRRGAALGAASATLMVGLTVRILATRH
ABCG2: Broad substrate specificity ATP-binding cassette transporter ABCG2 (ABCG2, Homo sapiens, UniProt Q9UNQ0)
Sequence of UniProt Q9UNQ0 (whole entry, looked up): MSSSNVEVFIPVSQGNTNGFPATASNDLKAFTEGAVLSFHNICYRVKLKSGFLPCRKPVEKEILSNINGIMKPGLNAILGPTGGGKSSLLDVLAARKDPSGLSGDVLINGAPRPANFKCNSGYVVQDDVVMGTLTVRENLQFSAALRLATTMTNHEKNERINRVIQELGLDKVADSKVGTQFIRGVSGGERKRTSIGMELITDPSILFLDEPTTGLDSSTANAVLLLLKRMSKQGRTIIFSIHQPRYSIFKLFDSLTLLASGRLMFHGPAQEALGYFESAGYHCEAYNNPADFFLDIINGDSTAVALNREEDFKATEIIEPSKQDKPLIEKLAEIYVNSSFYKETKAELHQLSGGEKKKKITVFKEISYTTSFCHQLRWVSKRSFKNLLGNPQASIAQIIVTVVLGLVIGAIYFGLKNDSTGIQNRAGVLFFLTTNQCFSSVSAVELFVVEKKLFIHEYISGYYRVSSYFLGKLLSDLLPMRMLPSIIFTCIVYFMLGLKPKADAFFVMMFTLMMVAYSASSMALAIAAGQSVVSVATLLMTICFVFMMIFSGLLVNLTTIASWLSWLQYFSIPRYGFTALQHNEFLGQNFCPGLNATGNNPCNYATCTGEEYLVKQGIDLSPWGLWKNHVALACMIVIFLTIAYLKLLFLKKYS
Sequence of UniProt Q05421 (whole entry, looked up): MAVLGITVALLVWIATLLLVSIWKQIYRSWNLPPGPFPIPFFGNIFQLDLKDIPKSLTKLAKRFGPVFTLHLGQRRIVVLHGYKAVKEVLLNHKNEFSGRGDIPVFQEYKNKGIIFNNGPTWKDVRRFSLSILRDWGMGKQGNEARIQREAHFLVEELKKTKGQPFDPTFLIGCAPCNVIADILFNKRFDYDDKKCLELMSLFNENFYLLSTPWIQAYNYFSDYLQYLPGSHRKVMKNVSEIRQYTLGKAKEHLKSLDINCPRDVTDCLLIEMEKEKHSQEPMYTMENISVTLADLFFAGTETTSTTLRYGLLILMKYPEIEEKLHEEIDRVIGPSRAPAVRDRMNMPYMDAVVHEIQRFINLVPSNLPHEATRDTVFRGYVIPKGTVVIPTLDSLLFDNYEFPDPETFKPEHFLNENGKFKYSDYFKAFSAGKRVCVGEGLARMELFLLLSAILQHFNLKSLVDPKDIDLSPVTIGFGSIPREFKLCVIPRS

Structure (SMILES)	target	test	system	conditions	how to read	measurement	value
CC(C)CC(=O)OC[C@H]1O[C@@](C#N)(c2ccc3c(N)ncnn23)[C@H](O)[C@@H]1O	CYP2C19	metabolic stability	recombinant enzyme	1 µM		intrinsic clearance	0 µL/min/pmol
COc1ccc2cc1Oc1ccc(cc1)C[C@H]1c3cc(c(OC)cc3CCN1C)Oc1c(OC)c(OC)cc3c1[C@H](C2)N(C)CC3	SLCO1B3	transport, inhibitor		10 µM, with: EG		inhibition	41.9%
CCCC[C@@H]1NC(=O)[C@H](Cc2ccc(O)cc2)NC(=O)[C@@H]2CCCN2C(=O)[C@H](CCC(=O)O)NC(=O)[C@H](C)NC(=O)[C@H](Cc2ccccc2)NC(=O)[C@@H]2CSCCC(=O)N3CN(CN(C3)C(=O)CCSC[C@H](NC(C)=O)C(=O)N[C@@H](CC(C)(C)C)C(=O)N3CCC[C@H]3C(=O)N[C@@H](CCC(=O)O)C(=O)N[C@H](CCCCNC(=O)CCc3cn(CCOCCOCCOCCOCCOCCC(=O)N[C@H]4CSCCC(=O)N5CN6CN(C5)C(=O)CCSC[C@H](NC(=O)[C@@H](CC(=O)O)NC(=O)[C@H](Cc5cccc7ccccc57)NC(=O)[C@@H]5CCCN5C4=O)C(=O)N[C@@H](CCSC)C(=O)N[C@@H](CCCCNC(=N)N)C(=O)N[C@@H](CC(=O)O)C(=O)N[C@@H](Cc4c[nH]c5ccccc45)C(=O)N[C@@H](CO)C(=O)N[C@@H]([C@@H](C)O)C(=O)N4CCC[C@H]4C(=O)N4C[C@H](O)C[C@H]4C(=O)N[C@@H](Cc4c[nH]c5ccccc45)C(=O)N[C@H](C(N)=O)CSCCC6=O)nn3)C(=O)N3CCC[C@H]3C(=O)N[C@@H](Cc3ccc(O)cc3)C(=O)N2)C(=O)CCSC[C@@H](C(N)=O)NC1=O	Tumor necrosis factor receptor superfamily member 9/Nectin-4	reporter gene, agonist, luciferase reporter	CD137 Jurkat reporter with HT-1376	6 h, geometric mean	baseline: wells without compound	Emax	2 fold
COc1cc2nc(N3CCN(C(=O)c4ccco4)CC3)nc(N)c2cc1OC	SLC47A2	transport, inhibitor	transiently transfected cells	100 µM, 10 (unit not given), with: thiamine		inhibition	115%
Clc1ccc(C(c2ccccc2Cl)C(Cl)(Cl)Cl)cc1 (stereo not drawn)	ABCG2	inhibition, inhibitor		0.03 to 100 µM, with: sulfasalazine 10 µM		BCRP ATPase activity	inhibited
O=C1CCC(N2C(=O)c3ccccc3C2=O)C(=O)N1 (stereo not drawn)	ABCG2	transport, inhibitor		100 µM, 5 (unit not given), pH 7, with: CCK-8		inhibition	19%
CC1(C)[C@H](C(=O)O[C@H](C#N)c2cccc(Oc3ccccc3)c2)[C@@H]1C=C(Br)Br	CES2 human cytosolic			0.1 µM, age 5 years		enzyme contribution	0.36%
Cn1nccc1[C@]1(CNC(=O)c2ccc(F)c(F)c2-c2ccc(C(F)(F)F)cc2)NC(=O)NC1=O	CYP1A2 (human)		human liver microsomes	with: phenacetin	no inhibition up to value	IC50	> 20 µM
CCCC[C@@H]1NC(=O)[C@H](Cc2ccc(O)cc2)NC(=O)[C@@H]2CCCN2C(=O)[C@H](CC(=O)O)NC(=O)[C@H](C)NC(=O)[C@H](Cc2ccccc2)NC(=O)[C@@H]2CSCCC(=O)N3CN(CN(C3)C(=O)CCSC[C@@H](C(=O)N[C@@H](C)C(N)=O)NC1=O)C(=O)CCSC[C@H](NC(C)=O)C(=O)N[C@@H](CC(C)(C)C)C(=O)N1CCC[C@H]1C(=O)N[C@@H](CCC(=O)O)C(=O)N[C@H](CCCCNC(=O)CCc1cn(CCOCCOCCOCCOCCOCCC(=O)NCCCC[C@H]3NC(=O)[C@H](Cc4cccc5ccccc45)NC(=O)[C@@H]4CCCN4C(=O)[C@@H](NC(C)=O)CSCCC(=O)N4CN5CN(C4)C(=O)CCSC[C@H](NC3=O)C(=O)N[C@@H](CCSC)C(=O)N[C@@H](CCCCNC(=N)N)C(=O)N[C@@H](CC(=O)O)C(=O)N[C@@H](Cc3c[nH]c4ccccc34)C(=O)N[C@@H](CO)C(=O)N[C@@H]([C@@H](C)O)C(=O)N3CCC[C@H]3C(=O)N3C[C@H](O)C[C@H]3C(=O)N[C@@H](Cc3c[nH]c4ccccc34)C(=O)N[C@H](C(N)=O)CSCCC5=O)nn1)C(=O)N1CCC[C@H]1C(=O)N[C@@H](Cc1ccc(O)cc1)C(=O)N2	Tumor necrosis factor receptor superfamily member 9/Nectin-4	reporter gene, agonist, luciferase reporter	CD137 Jurkat reporter with HT-1376	6 h, geometric mean	baseline: wells without compound	Emax	44 fold
C=CC1CO1 (stereo not drawn)	Cytochrome P450 2E1 (Cyp2e1, Mus musculus, UniProt Q05421)	4-nitrophenol oxidation, inhibitor	B6C3F1 mouse, liver microsomes			Ki	29 µM
CCCC[C@@H]1NC(=O)[C@H](Cc2ccc(O)cc2)NC(=O)[C@@H]2CCCN2C(=O)[C@H](CC(=O)O)NC(=O)[C@H](C)NC(=O)[C@H](Cc2ccccc2)NC(=O)[C@@H]2CSCCC(=O)N3CN(CN(C3)C(=O)CCSC[C@H](NC(C)=O)C(=O)N[C@@H](CC(C)(C)C)C(=O)N[C@@H](CCC(=O)O)C(=O)N[C@@H](CCC(=O)O)C(=O)N[C@H](CCCCNC(=O)CCc3cn(CCOCCOCCOCCOCCOCCC(=O)N[C@H]4CSCCC(=O)N5CN6CN(C5)C(=O)CCSC[C@H](NC(=O)[C@@H](CC(=O)O)NC(=O)[C@H](Cc5cccc7ccccc57)NC(=O)[C@@H]5CCCN5C4=O)C(=O)N[C@@H](CCSC)C(=O)N[C@@H](CCCCNC(=N)N)C(=O)N[C@@H](CC(=O)O)C(=O)N[C@@H](Cc4c[nH]c5ccccc45)C(=O)N[C@@H](CO)C(=O)N[C@@H]([C@@H](C)O)C(=O)N4CCC[C@H]4C(=O)N4C[C@H](O)C[C@H]4C(=O)N[C@@H](Cc4c[nH]c5ccccc45)C(=O)N[C@H](C(N)=O)CSCCC6=O)nn3)C(=O)N3CCC[C@H]3C(=O)N[C@@H](Cc3ccc(O)cc3)C(=O)N2)C(=O)CCSC[C@@H](C(N)=O)NC1=O	Tumor necrosis factor receptor superfamily member 9/Nectin-4	reporter gene, agonist, luciferase reporter	CD137 Jurkat reporter with HT-1376	6 h, geometric mean	baseline: wells without compound	Emax	44 fold
O=C(O)C(F)(F)C(F)(F)C(F)(F)C(F)(F)C(F)(F)C(F)(F)C(F)(F)F	SLCO1B3	uptake, substrate	CHO cells stably expressing SLCO1B3	1 min, 37 °C		Jmax	2690 ± 470 pmol/min/mg protein
CCN(CCO)CCCC(C)Nc1ccnc2cc(Cl)ccc12 (stereo not drawn)	SLC47A2	transport, inhibitor	transiently transfected cells	100 µM, 10 (unit not given), with: thiamine		inhibition	132%
CC1(C)[C@H](C=C(Cl)Cl)[C@H]1C(=O)OCc1cccc(Oc2ccccc2)c1	human CYP2B6	IVIVE from expressed enzymes	human, liver, in vivo scaled	0.1 µM, age-specific		enzyme contribution to CLint	0.05%
CCN(CC)CCCC(C)Nc1ccnc2cc(Cl)ccc12 (stereo not drawn)	SLCO1B3	transport, inhibitor	transiently transfected cells	100 µM, 10 (unit not given), with: CCK-8		inhibition	57.3%
CCCC[C@@H]1NC(=O)[C@H](Cc2ccc(O)cc2)NC(=O)[C@@H]2CCCN2C(=O)[C@H](CC(N)=O)NC(=O)[C@H](C)NC(=O)[C@H](Cc2ccccc2)NC(=O)[C@@H]2CSCCC(=O)N3CN(CN(C3)C(=O)CCSC[C@H](NC(C)=O)C(=O)N[C@@H](CC(C)(C)C)C(=O)N3CCC[C@H]3C(=O)N[C@@H](CCC(=O)O)C(=O)N[C@H](CCCCNC(=O)CCc3cn(CCOCCOCCOCCN(CCOCCOCCOCCC(=O)N[C@H]4CSCCC(=O)N5CN6CN(C5)C(=O)CCSC[C@H](NC(=O)[C@@H](CC(=O)O)NC(=O)[C@H](Cc5cccc7ccccc57)NC(=O)[C@@H]5CCCN5C4=O)C(=O)N[C@@H](CCSC)C(=O)N[C@@H](CCCCNC(=N)N)C(=O)N[C@@H](CC(=O)O)C(=O)N[C@@H](Cc4c[nH]c5ccccc45)C(=O)N[C@@H](CO)C(=O)N[C@@H]([C@@H](C)O)C(=O)N4CCC[C@H]4C(=O)N4C[C@H](O)C[C@H]4C(=O)N[C@@H](Cc4c[nH]c5ccccc45)C(=O)N[C@H](C(N)=O)CSCCC6=O)CCOCCOCCOCCn4cc(CCC(=O)NCCCC[C@H]5NC(=O)[C@H](CCC(=O)O)NC(=O)[C@@H]6CCCN6C(=O)[C@H](CC(C)(C)C)NC(=O)[C@@H](NC(C)=O)CSCCC(=O)N6CN7CN(C6)C(=O)CCSC[C@H](NC(=O)[C@H](Cc6ccc(O)cc6)NC(=O)[C@@H]6CCCN6C5=O)C(=O)N[C@@H](Cc5ccccc5)C(=O)N[C@@H](C)C(=O)N[C@@H](CC(N)=O)C(=O)N5CCC[C@H]5C(=O)N[C@@H](Cc5ccc(O)cc5)C(=O)N[C@@H](CCCC)C(=O)N[C@H](C(N)=O)CSCCC7=O)nn4)nn3)C(=O)N3CCC[C@H]3C(=O)N[C@@H](Cc3ccc(O)cc3)C(=O)N2)C(=O)CCSC[C@@H](C(N)=O)NC1=O	Tumor necrosis factor receptor superfamily member 9/Nectin-4	reporter gene, agonist, luciferase reporter	CD137 Jurkat reporter with HT-1376	6 h, geometric mean	baseline: wells without compound	Emax	25 fold
N#CC[C@H](C1CCCC1)n1cc(-c2ncnc3[nH]ccc23)cn1	ABCG2	transport, inhibitor		100 µM, 5 (unit not given), pH 7, with: CCK-8		inhibition	-3.3%
O=C(Nc1cccnn1)N1CCC(=Cc2cccc(Oc3ccc(C(F)(F)F)cn3)c2)CC1	CYP2C19	enzyme activity, inhibitor		50 µM, with: 3-cyano-7-ethoxycoumarin substrate		inhibition	89%

A few entries again:
Structure (SMILES)	target	test	system	conditions	how to read	measurement	value
N#CC[C@H](C1CCCC1)n1cc(-c2ncnc3[nH]ccc23)cn1	ABCG2	transport, inhibitor		100 µM, 5 (unit not given), pH 7, with: CCK-8		inhibition	-3.3%
